Assay results of several laboratories.
Every numbered part comes from another study and shows a few of its results, in no order.

Sample 1
Target: Histone acetyltransferase KAT6A, both winged helices, GST fusion (KAT6A, Homo sapiens, UniProt Q92794, residues 1-181)
Method: protein binding microarray
Molecule type: double-stranded DNA, one strand shown
Sample: in vitro
Concentration: not given
Setting: 8-mer, flanks averaged, mean of 2 arrays, mostly near background
Baseline: not given
Direction: higher = stronger binding
Construct (chain): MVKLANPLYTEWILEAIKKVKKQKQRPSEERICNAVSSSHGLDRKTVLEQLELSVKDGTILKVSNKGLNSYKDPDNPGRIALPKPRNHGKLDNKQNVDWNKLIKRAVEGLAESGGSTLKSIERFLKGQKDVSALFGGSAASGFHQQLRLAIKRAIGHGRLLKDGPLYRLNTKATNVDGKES
Strand	E-score
AGGACACT	-0.171
ATCTGCTA	-0.298
GTGTACCA	0.0318
CCAAGATA	-0.15
CTGCTTCA	-0.16
CAAACCGG	0.1
AAGGGCCT	-0.161
ACAAATGA	-0.184
CTCGCCGA	0.216
ATCCCGAT	-0.106
TACACAGA	-0.104
ATCAAGGA	-0.0862
CCCTCAGG	-0.13
CGCACACA	0.162
AGTACGAC	-0.054
GCCCCCGC	0.24
GTGGCAAA	-0.116
AACGAACG	0.0581
AAAGAATC	-0.0691
CTCACTTA	-0.14
AGCCGTGA	0.282
GCTATAGA	-0.0155
CTCTCAGA	-0.153
CGCGTGAA	0.278
CCATAGCC	0.0109

Sample 2
Target: Interferon regulatory factor 3, full length, phosphomimetic (IRF3, Homo sapiens, UniProt Q14653, residues 1-427, S386D/S396D/S398D/S402D/T404D/S405D)
Method: protein-binding microarray
Molecule type: double-stranded DNA, one strand shown
Sample: in vitro
Concentration: 2540 nM top
Setting: 60-bp whole probe
Added: salmon DNA 0.4 mg/ml
Baseline: random background probes
Direction: higher = stronger binding
Shared flanks, not repeated: GCCTAGCAC … GTCTTGATTCGCTTGACGCTGCTG
Construct (chain): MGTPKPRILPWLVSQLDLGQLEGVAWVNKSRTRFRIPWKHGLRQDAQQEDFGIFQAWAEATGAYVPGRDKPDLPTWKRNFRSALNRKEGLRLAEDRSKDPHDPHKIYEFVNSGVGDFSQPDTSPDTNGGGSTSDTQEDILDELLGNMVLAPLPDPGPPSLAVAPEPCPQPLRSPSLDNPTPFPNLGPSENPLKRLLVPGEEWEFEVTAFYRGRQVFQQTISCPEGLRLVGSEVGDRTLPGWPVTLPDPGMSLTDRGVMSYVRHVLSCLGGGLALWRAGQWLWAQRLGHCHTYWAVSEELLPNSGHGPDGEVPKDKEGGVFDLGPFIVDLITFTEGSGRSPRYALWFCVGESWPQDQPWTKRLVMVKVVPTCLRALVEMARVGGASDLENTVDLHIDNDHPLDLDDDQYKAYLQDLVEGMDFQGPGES
Strand	fitted relative affinity [z-score]
CACGATTTCAGTTCCGAGACGTGCTAG	2.48
GACGGTCTGGGGTTTCGGGACGTGCTA	0.553
GACGATATGAGTTTCGAGACGTGCTAG	1.34
GACGGTATCGGTATCGGGATGTGCTAG	4.7
GACGGTCTCGGGTTTCGGGACGTGCTA	1.37
TTAGTTATCAGTATCGATTAGTGCTAG	2.22
TCCATTTTCAGAATTTACTTGTGCTAG	2.92
TTATGTTTCCTACTGCTTTAGTGCTAG	4.07
TCAGTTTTTACTTTCTGACTGTGCTAG	2.75
TTAGGTTTCGGGTTTCGGTGAGTGCTA	5.51
TTAGGTTTCGGGACTGGGTTCGTGCTA	4.47
TTTGGTTTCGGGTTTCGGTTAGTGCTA	6.86
TTAGGACTGGACACTGTGTTAGTGCTA	-0.632
ACTGCTCTGTTGCCTGGTCCTGTGCTA	-0.105
TCACCTGTCTACATGGGACTGTGCTAG	0.771
GATGGTTTCGGTATCGGGACGTGCTAG	7.91
GTCACATTGCACAATCTTAATGTGCTA	1.08
CAAGTTTCTCCTTTCGGAATGTGCTAG	3.61
TTAGGTCTCGGTATGGGTTAGTGCTAG	0.242
GACGGTTTCGGGTATAGGGACGTGCTA	4.23
TTAGGTATCCTTTTCCTGTAGTGCTAG	7.98
TTAGGTATCGACGCTGGGTTAGTGCTA	-0.422
TCATCTATCTCTGTTTTACTGTGCTAG	1.33
TTAGGTCTCGACACTGGGTTAGTGCTA	-0.697
TGAGGTTTCGGGACTGGGTTAGTGCTA	3.75

Sample 3
Target: RING finger protein unkempt homolog, zinc fingers 1-6, GST-SBP tag (UNK, Homo sapiens, UniProt Q9C0B0, residues 30-357)
Chain of UniProt Q9C0B0 (30-357, looked up): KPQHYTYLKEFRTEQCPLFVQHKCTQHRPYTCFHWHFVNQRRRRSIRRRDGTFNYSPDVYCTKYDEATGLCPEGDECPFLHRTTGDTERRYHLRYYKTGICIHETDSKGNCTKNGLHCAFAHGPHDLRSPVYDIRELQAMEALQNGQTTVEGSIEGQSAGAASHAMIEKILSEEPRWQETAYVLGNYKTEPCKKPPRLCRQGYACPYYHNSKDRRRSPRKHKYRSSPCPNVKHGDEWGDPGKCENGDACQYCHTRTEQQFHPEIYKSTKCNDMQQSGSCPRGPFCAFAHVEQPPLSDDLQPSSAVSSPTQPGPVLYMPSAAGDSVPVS
Method: RNA Bind-n-Seq
Molecule type: RNA
Sample: in vitro
Concentration: not given
Setting: RNA with constant flanks, human and mouse sites, ends assumed
Baseline: input RNA pool
Direction: higher = stronger binding
Strand	bound/input enrichment
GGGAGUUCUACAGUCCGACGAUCGGUUGCAGAUGUGUUGAACUUGACUGCUGGGAUGGAAAAGGUGAAGACCAAGAACCAAUAAUAACUCAUGGAAAAGCAAUGUGUACAGAUAUCCUUUUUAAGGAUGUAAUUCAAGCCAUCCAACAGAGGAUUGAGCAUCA	0.499 ratio
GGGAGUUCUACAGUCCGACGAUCCCCACACCAAGGGGCCAUGUGCAGCAAGAGCCAAGCAGGCAGCUGUCCAUACUCACUGCCUAGGUGACCCCAGCCCCAGGGCCCAGCCCCAGCCAUUCUGGCUUCAUGCCAGAGGCAGUUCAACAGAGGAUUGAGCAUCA	0.101 ratio
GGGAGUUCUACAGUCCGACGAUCGGAGCUGCGGGAACCGGACUCCGGGCGGGUUGGACUGCUGGAGUCAAUGAGAGAAGCUUUUAGGUUAAUUUGAAUAUAAGAUCAGAUCUGAUUGGCCCACCUGGACACCCCUUCAAGGAACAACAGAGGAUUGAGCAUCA	0.653 ratio
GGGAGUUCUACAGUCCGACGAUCUCAACCAAAGAUGUACAUAAAGGAGAGUCUGGAAGCCAGGAAGCGGCAGUAAACAGUUUUAGCUCUUUAGUUGGUCACCCUGUGACCUCGACUGUUAUUUCACAGCCUAAAAGCUUUGACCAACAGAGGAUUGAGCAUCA	0.283 ratio
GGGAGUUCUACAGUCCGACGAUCAUGGGCUUUCAUGUAAUCUAUAAGACACCCUGUGGUCUCUGCCUUCGGACGAUGCAGGAGAUAGAGCGCUACCUUUUUGAGACUGGCUGUGACUUUCUGUUCCUGGAGAUGUUCUGUUUGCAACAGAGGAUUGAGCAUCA	0.195 ratio
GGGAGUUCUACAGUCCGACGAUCGUAUUUAAGUUUGCUGUAGAUUGUGUGUGUGUGUGCUAAGUAAAAGUUCCAUGAUUCACAAUUUUAGUAUUAACCCAUGUUGCAAAAGCUGUUACUGGCCAACAGAUUGUAAUGAUGUGUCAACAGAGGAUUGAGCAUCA	3.57 ratio
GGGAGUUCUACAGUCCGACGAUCAAUGUCCAAAUCUGUGUUUCCCCCUGCCCUCCCAGACUGUGUGGCCAGUUGAAAGUGUCUGGUUUGUGUUCAUCUCUCCCUCAUUUCUGGAGCAGGGCCUGAGACCCUGCCACAUCUCCUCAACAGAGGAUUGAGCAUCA	0.374 ratio
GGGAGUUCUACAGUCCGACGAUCUAUAAGCUGUCGGGGAACCUGACACUGCUGCGGGCCCACGUCACGGGCCCUGUGGAGGACAACGAGAAGUGCUACCCGCCGCCCAGCGUGCAGUCCUGCCCCCACGGCCUGGGCAGUACUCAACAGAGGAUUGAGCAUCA	0.111 ratio
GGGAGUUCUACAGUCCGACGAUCUCAGUGAUUAUUUUUCCAGCUCCGUGUUUCUCUAAGGAAUUAUUUCACACACGGACCAUCUUUAGCAGUUUCCUCAGUGAUGGAAUAUCAUGAAUGUGAGUCAUUAUGUAGCUGUCGUACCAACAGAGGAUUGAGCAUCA	0.572 ratio
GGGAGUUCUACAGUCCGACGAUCUCUUCAGAUAUGAAGAUGACUCAGCUGUUCACCAAAGUUGAAUCAGAGGAUACAAGCUGCCUUUUUGAUAAGCUUAAGAAGGAGCCUGAUGCUCUCACUCUGCUGGCUCCAGCUGCCGGCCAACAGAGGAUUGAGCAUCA	1.16 ratio
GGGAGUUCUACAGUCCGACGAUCACAUAAAUGGAUCUAAAGACAGCAGUAUUUAACGCAGCUCGGGAUGGCAAACUCCGGCUUCUCACCAAAUUGUUGGCAAGCAAAUCCAAAGAGGAGGUUUCCUCCUUGAUCUCUGAAAAACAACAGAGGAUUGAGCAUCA	0.113 ratio

Sample 4
Target: RNA binding protein fox-1 homolog 2, RRM domain, GST-SBP tag (RBFOX2, Homo sapiens, UniProt O43251-10, residues 100-194)
Method: RNA Bind-n-Seq
Molecule type: RNA
Sample: in vitro
Concentration: 365 nM
Setting: natural RNA segment, single round, ends assumed
Baseline: no-protein control
Direction: higher = stronger binding
Residues (chain): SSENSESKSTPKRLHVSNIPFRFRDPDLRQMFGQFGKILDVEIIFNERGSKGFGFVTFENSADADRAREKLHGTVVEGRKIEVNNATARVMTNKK
Strand	RBNS enrichment (R)
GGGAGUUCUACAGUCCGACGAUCAAAGAGGAGAAUUUCCCAGUCAGGUAGCCAGGAGAACAGUGCCACCCUGCGAUUGUGCCACCCUGUGAUUGUAUAGCGUGUUGUUUGUUCCAGUAAGCAGGCAGGCCCAGUGGAAUUCUCGGGUGCCAA	1.14
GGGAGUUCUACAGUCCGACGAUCCUGGCCCUGAGGGUUUGGAAUCUGACCGGGUGAAGGCACCACCGGCGAGCUUUUGAAAGCAACAGGGCCUAGCCUGCAAACAGUUAUCUUGGGAAACUGUCCAGCCACGUUGGAAUUCUCGGGUGCCAA	0.546
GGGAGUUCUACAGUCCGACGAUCUGCCCUCUUGAGUGUGGGGAGCCCCUAGUCCUUUAAGGUUGGCUGCUAAGGCCUGUGCUCCAAAGCAACGGGCUGGGGCAGCCUGCAGCUGCCCACCCAACCUGGUCUUCUGGAAUUCUCGGGUGCCAA	0.214
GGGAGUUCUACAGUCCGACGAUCAAAGGCUUUUUCCCCGCCUUUGGUUGUUAACGGCAUUCCUGAAAGCCACAUGUGUUUAUUCAUUGGGCUUGUUCUUAUCAGCAAAUAGGUUUUCUGGUUUUAUGACUUUUUGGAAUUCUCGGGUGCCAA	0.331
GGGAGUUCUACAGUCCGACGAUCAUAUGGUAUAUGUUUCUGAUUUUUAAUAUUUCUUUUGAGAAAUUCUGAGUUCUGAUGUAGGAGCUUUCCUGUGAUUUCUGUUUCACGUUCCUUCCUGUCACACCCUCCUUUGGAAUUCUCGGGUGCCAA	0.712
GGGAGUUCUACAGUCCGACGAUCUUGGAGAACUGCACUAAACCCACUAAACAGAUGCAAAAACCUGACCAGGCCCAACACCCACCCUGCCUGGCUCCUCUCCUCAUCCAGACUAACUCUACUGUGAAGUCCCAUGGAAUUCUCGGGUGCCAA	0.428
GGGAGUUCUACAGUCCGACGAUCUCCUUUAAAAGUUUAAUGAUACUUCUGAUGUUUCGGAACAGUCAUUUCACCUACUAUUUCUGAAUAUAUUUUGCAAAUUGAAUUGGAAUAGGAAUUGAUAAUAGCAGUCUUGGAAUUCUCGGGUGCCAA	0.477
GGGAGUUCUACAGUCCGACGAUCCUUCCCUUAAGGAGCAAGAAGCGCCUUCUCUGUCAGGUAAGGGGAUAAGCUCUGCUGGAUCCAAGGGAUCCAGGCUAAGGGCGUUCAGUCUGCUGCAAACCAGUCUGGCCUGGAAUUCUCGGGUGCCAA	0.19
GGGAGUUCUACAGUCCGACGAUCCACCUACAGCUCAGUGGGGUUUCCAUUCACGGACUUGCUGUUCCUGUGGGCCAGUGUCGUGUGGCCUGGAGACCAUCAGGAGUCUGCACACCCACCACUUACUUGUGCCAUGGAAUUCUCGGGUGCCAA	0.298
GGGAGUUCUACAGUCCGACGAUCUUACCAAUCAUAUUAAUACAAUGAUGCUAUUUGCAAUUCCUGCUCCUAGGGGAGGGGAGAUAAGAAACCCUCACUCUCUACAGGUUUGGGUACAAGUGGCAACCUGCUUCUGGAAUUCUCGGGUGCCAA	0.526
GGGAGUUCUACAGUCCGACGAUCUCCCUGUGAGGCGACAGUACAUGUGAGAAGAGGUACAUUUGUUGGAUUUUUGUUAAUGUAUUUAUUUCAUUCCAGUUUGAUUUAUUUUAAUUGUUGAUACUUAAGUUGUCUGGAAUUCUCGGGUGCCAA	1.2
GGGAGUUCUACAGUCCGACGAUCUUCCAGGAUCUAAAUGAAUGGGAAUUUAUAAUUCCUUUCAUAGACUCAAACCUGAAAGCAGAAAUUUUUAGUAGUUGAGUUGCUUUAAGUGAAUUUUAACAAAUAUGACAUGGAAUUCUCGGGUGCCAA	0.469

Excerpt of the above (sample 1):
Strand	E-score
CTCGCCGA	0.216
ATCCCGAT	-0.106
TACACAGA	-0.104
ATCAAGGA	-0.0862
CCCTCAGG	-0.13
CGCACACA	0.162
AGTACGAC	-0.054
